{"data": "Measured values gathered from unrelated publications", "ADORA2A": "Adenosine receptor A2a (ADORA2A, Homo sapiens, UniProt P29274)", "note": "Lines come from different studies, so protocols differ."}
{"SMILES": "CCNC(=O)C1OC(n2cnc3c(NC(CC)CC)nc(NCCNC(=O)Nc4cc[n+](C)cc4)nc32)C(O)C1O (stereo not drawn)", "target": "ADORA2A", "test": "cAMP, agonist, luciferase", "measurement": "EC50", "result": "0.331 nM"}
{"SMILES": "N#Cc1c(N)nc(SCc2ncc[nH]2)c(C#N)c1-c1cccc(F)c1", "target": "ADORA2A", "test": "ligand displacement, radioligand", "setting": "cell membranes", "measurement": "Ki", "result": "43 nM"}
{"SMILES": "Nc1nc(SCCc2ccc(S(=O)(=O)O)cc2)nc2c1ncn2C1OC(CO)C(O)C1O (stereo not drawn)", "target": "ADORA2A", "test": "phosphorylation in cells, agonist, AlphaScreen", "measurement": "EC50", "result": "3.16 nM"}
{"SMILES": "COc1ccc(/C=C/c2nc3c(Nc4ccc(Cl)cc4)ncnc3[nH]2)cc1OC", "target": "ADORA2A", "test": "cAMP, ELISA", "measurement": "IC50", "result": "19500 nM"}
{"SMILES": "Nc1ncnc2c1ncn2[C@@H]1O[C@H](C(=O)NC2COC2)[C@@H](O)[C@H]1O", "target": "ADORA2A", "test": "ligand displacement, radioligand", "setting": "cell membranes", "measurement": "Ki", "result": "850 nM"}
{"SMILES": "Cc1ccc(/C=C/c2nc3c(N)ncnc3[nH]2)cc1", "target": "ADORA2A", "test": "cAMP, ELISA", "measurement": "IC50", "result": "> 398000 nM"}
{"SMILES": "Nc1ncnc2c1ncn2[C@@H]1O[C@H](C(=O)NCCCF)[C@@H](O)[C@H]1O", "target": "ADORA2A", "test": "ligand displacement, radioligand", "setting": "cell membranes", "measurement": "Ki", "result": "690 nM"}
{"SMILES": "CC(=O)Nc1ccc(-c2c(C#N)c(N)nc(SCc3ccccc3)c2C#N)cc1", "target": "ADORA2A", "test": "ligand displacement, radioligand", "setting": "cell membranes", "measurement": "Ki", "result": "27 nM"}
{"SMILES": "CN(C(=O)c1ccn2ncc(-c3ccc(C(N)=O)cc3)c2c1)c1ccc(C#N)cn1", "target": "ADORA2A", "test": "ligand displacement", "measurement": "IC50", "result": "> 30000 nM"}
{"SMILES": "CCNC(=O)C1OC(n2cnc3c(NCC(c4ccccc4)c4ccccc4)nc(NCCNC(=O)Nc4cc[n+](C)cc4)nc32)C(O)C1O (stereo not drawn)", "target": "ADORA2A", "test": "cAMP, agonist, luciferase", "measurement": "EC50", "result": "0.129 nM"}
{"SMILES": "COc1ccc(/C=C/c2nc3c(Cl)ncnc3[nH]2)cc1OC", "target": "ADORA2A", "test": "cAMP, ELISA", "measurement": "IC50", "result": "22800 nM"}
{"SMILES": "CCNC(=O)C1OC(n2cnc3c(NCC(C)C)nc(NCCNC(=O)Nc4cc[n+](C)cc4)nc32)C(O)C1O (stereo not drawn)", "target": "ADORA2A", "test": "cAMP, agonist, luciferase", "measurement": "EC50", "result": "0.447 nM"}
{"SMILES": "CN(C)c1ccc(/C=C/c2nc3c(N)ncnc3[nH]2)cc1", "target": "ADORA2A", "test": "cAMP, ELISA", "measurement": "IC50", "result": "> 357000 nM"}
{"SMILES": "N#Cc1c(N)nc(SCc2ncc[nH]2)c(C#N)c1-c1ccc(O)cc1", "target": "Adenosine receptor A2a, Δ40 C-terminal truncation (ADORA2A, Homo sapiens, UniProt P29274)", "test": "binding", "measurement": "IC50", "result": "166 nM"}
{"SMILES": "COc1ncc(/C=C/c2nc3c(N)ncnc3[nH]2)cn1", "target": "ADORA2A", "test": "cAMP, ELISA", "measurement": "IC50", "result": "> 371000 nM"}
{"SMILES": "CCNC(=O)C1OC(n2cnc3c(NCC(c4ccccc4)c4ccccc4)nc(NCCNC(=O)Nc4ccncc4)nc32)C(O)C1O (stereo not drawn)", "target": "ADORA2A", "test": "cAMP, agonist, luciferase", "measurement": "EC50", "result": "0.912 nM"}
{"SMILES": "COc1ccccc1Nc1ncnc2[nH]c(/C=C/c3ccc(OC)c(OC)c3)nc12", "target": "ADORA2A", "test": "cAMP, ELISA", "measurement": "IC50", "result": "> 248000 nM"}
{"SMILES": "CCNC(=O)C1OC(n2cnc3c(NCC(c4ccccc4)c4ccccc4)nc(NCCc4ccc(CC[N+](C)(C)C)cc4)nc32)C(O)C1O (stereo not drawn)", "target": "ADORA2A", "test": "cAMP, agonist, luciferase", "measurement": "EC50", "result": "1230 nM"}
{"note": "For quick reference, copied from above:"}
{"SMILES": "Nc1nc(SCCc2ccc(S(=O)(=O)O)cc2)nc2c1ncn2C1OC(CO)C(O)C1O (stereo not drawn)", "target": "ADORA2A", "test": "phosphorylation in cells, agonist, AlphaScreen", "measurement": "EC50", "result": "3.16 nM"}
{"SMILES": "COc1ccccc1Nc1ncnc2[nH]c(/C=C/c3ccc(OC)c(OC)c3)nc12", "target": "ADORA2A", "test": "cAMP, ELISA", "measurement": "IC50", "result": "> 248000 nM"}
{"SMILES": "CCNC(=O)C1OC(n2cnc3c(NC(CC)CC)nc(NCCNC(=O)Nc4cc[n+](C)cc4)nc32)C(O)C1O (stereo not drawn)", "target": "ADORA2A", "test": "cAMP, agonist, luciferase", "measurement": "EC50", "result": "0.331 nM"}
